Experimental data collected from several papers.
Compare with care: the assays were run in different laboratories. “And” joins repeats or separate records; there may be more than shown. Numbers after ± are the reported error.

[2H]C([2H])([2H])NC(=O)c1ccc(N2C(=S)N(c3ccc(C#N)c(C(F)(F)F)c3)C(=O)C2(C)C)cc1F
Vd/F (human, male; oral, 160 mg, single dose, fed): 45.2 ± 19.1 L

CC[C@@H](C)[C@@H](NC(=O)[C@@H](C)NC(=O)[C@@H](CCCCN)NC(=O)[C@@H](CC(C)C)NC(=O)[C@@H](C)NC(=O)[C@H](NC(=O)[C@@H](Cc1c[nH]cn1)NC(=O)[C@@H](CC(C)C)NC(=O)[C@H](NC(=O)[C@H](NC(=O)[C@@H](CCCCN)NC(=O)[C@H](NC(=O)[C@@H](C)NC(=O)[C@@H](CO)NC(=O)[C@@H](CCCCN)NC(=O)[C@@H](Cc1ccccc1)NC(=O)[C@H](NC(=O)[C@@H](CCCCN)NC(=O)[C@@H](CC(C)C)NC(=O)[C@@H](Cc1ccccc1)NC(=O)[C@@H](CO)NC(=O)[C@@H](CCCCN)NC(=O)[C@@H](Cc1c[nH]c2ccccc12)NC(=O)[C@@H](CCCCN)NC(C)=O)[C@H](C)O)C(C)C)[C@H](C)O)C(C)C)[C@H](C)O)C(=O)N[C@H](CO)C(=O)N[C@H](CO)C(N)=O
helical content (circular dichroism; aqueous buffer; pH 7.0, 5 °C; reference: reference peptide in TFE): 34%

Cc1ccc(OCC(=O)N(Cc2cccs2)c2ccn[nH]2)cc1
half-life (male Sprague-Dawley rat, plasma; oral, 100 mg/kg, single dose): 3.02 h

COc1ccc(-c2csc(N/N=C(\C)c3ccc(O)cc3)n2)cc1
deviation from initial concentration (stock and working solutions; concentration not given, 3 months, refrigerated, long-term storage): < 10%

N=C(N)NCCC[C@@H]1NC(=O)[C@H](Cc2c[nH]c3ccccc23)NC(=O)[C@@H](CC2CCCCC2)NC(=O)[C@@H]2CCCN2C(=O)[C@@H](NC(=O)CCc2ccccc2)CCCNC1=O
apparent total clearance (CL/F) (C57BL/6J mice, spinal cord; intraperitoneal, 1 mg/kg, two-compartment model): 0.99 ng/(min·ng/g)

COc1cc2c(cc1OC)CN(CCCCn1ccc3cc(OCC[18F])ccc31)C2
bone uptake (male ICR mice; intravenous, 280 kBq, 120 min post-injection): 6.49 ± 1.23 %ID/g

[11CH3]N1CCN(CCCOc2ccc(=O)n(-c3ccc(Cl)c(Cl)c3)n2)CC1
uptake (PET-CT; BALB/c mouse male, brain; intravenous, dose not given, 5 min): 7.66 ± 0.82 %ID/cc

Cn1c(=O)oc2ccc(-c3ccc(CC(C#N)NC(=O)C4CNCCCO4)c(F)c3)cc21 (stereo not drawn)
treatment-related adverse event incidence (item: lymphadenopathy; human volunteers; oral, dose not given): 3.7%

COc1cccc([O-])c1C=NCCCN(C)CCN(C)CCCN=Cc1c([O-])cccc1OC.[67Ga+3]
tissue uptake ratio (rat; intravenous, 2 h; reference: heart over lung): 2.4 ± 0.3

COc1ccc(OC)c(NCc2ccc3nc(N)nc(N)c3c2Cl)c1
haemolysis (haemolysis; sheep; 25 µM, 2 h, pH 7.2): 6.9%

NC[C@@H](C(=O)Nc1ccc(-c2cn[nH]c2)cc1)c1ccccc1
chemosis score (OECD 405 eye irritation; New Zealand White rabbit, eye; topical, 0.1%, 48 h (day 3), scale 0 to 4; direction not given): 0

NC12CNCCNCC(NCc3ccc(CNC(=O)CCCC(=O)NCc4ccc(-c5nncnn5)cc4)cc3)(CNCCNC1)CNCCNC2.[64Cu+2]
mean absorbed dose (OLINDA dosimetry; skin; 24 h pretargeting interval, together with: huA33-TCO pretargeting): 0.0298 rad/mCi

Brc1ccc(Nc2nc(NN=Cc3c[nH]c4ccccc34)nc(N3CCOCC3)n2)cc1
hepatic clearance (mouse liver microsomes; in vivo extrapolated): 2.4 mL/min

CCCC[C@H](NC(=O)CNC(=O)CNC(=O)CN1CCN(CC(=O)O)CCN(CC(=O)O)CC1)C(=O)N[C@H]1CC(=O)NCCCC[C@@H](C(N)=O)NC(=O)[C@H](Cc2c[nH]c3ccccc23)NC(=O)[C@H](CCCNC(=N)N)NC(=O)[C@@H](Cc2ccccc2)NC(=O)[C@H](Cc2c[nH]cn2)NC1=O [gallium-67 labelled]
tumour to tissue ratio (female C57 mice, B16/F1 melanoma; intravenous, 0.037 MBq, 2 h; reference: tumour over muscle): 74.5

COCCOCCOCCOCCC(=O)NCc1cc(CNC(=O)CCOCCOCCOCCOC)cc(-c2cc3cc4nc(c(-c5ccc(CCC(=O)O)cc5)c5[nH]c(cc6nc(c(OC)c2[nH]3)CC6(C)C)cc5-c2cc(CNC(=O)CCOCCOCCOCCOC)cc(CNC(=O)CCOCCOCCOCCOC)c2)CC4(C)C)c1
kic^−1 (water with 5% DMF; room temperature): 6 ns

CC[C@H](C)[C@H](NC(=O)[C@H](CC(C)C)NC(=O)[C@H](Cc1c[nH]c2ccccc12)NC(=O)[C@H](C)NC(=O)[C@@H](NC(=O)[C@H](Cc1ccccc1)NC(=O)[C@H](CC(=O)O)NC(=O)[C@H](CCCNC(=N)N)NC(=O)[C@H](C)NC(=O)[C@H](C)NC(=O)[C@H](CC(C)C)NC(=O)[C@H](C)NC(=O)[C@H](CC(=O)O)NC(=O)[C@H](CC(C)C)NC(=O)[C@@H](NC(=O)[C@@H](NC(=O)[C@H](C)NC(=O)[C@H](CC(C)C)NC(=O)[C@H](CCC(=O)O)NC(=O)[C@H](CO)NC(=O)[C@H](CO)NC(=O)[C@H](Cc1ccccc1)NC(=O)[C@@H](NC(=O)CNC(=O)[C@H](CCC(=O)O)NC(=O)CNC(=O)[C@@H](N)Cc1cnc[nH]1)[C@@H](C)O)[C@@H](C)O)[C@@H](C)CC)[C@@H](C)CC)C(=O)N[C@@H](C)C(=O)N[C@H](C(=O)N[C@@H](CCCCN)C(=O)N[C@H](C(=O)N[C@H](C(=O)N[C@@H](CC(=O)O)C(=O)N[C@@H](CCCCN)C(=O)N[C@@H](CCCCN)C(=O)N[C@@H](CCCCN)C(=O)N[C@@H](CCCCN)C(=O)N[C@@H](CCCCN)C(=O)N[C@@H](CCCCN)C(N)=O)[C@@H](C)O)[C@@H](C)CC)[C@@H](C)O
AUC(0-last) (immunoaffinity LC-MS/MS; healthy human subjects, plasma; intravenous infusion, 1 mg, 15 min infusion): 40.8 nM·h

O=C(O)c1cccc(S(=O)(=O)Nc2ccccc2)c1
AUC(0-inf) metabolic ratio (human, mild liver dysfunction, plasma; intravenous, 400 mg/m^2 belinostat, cycle 1 day -7, geometric mean; reference: metabolite over belinostat): 1.01

COc1cc(NC(C)=O)c2c(c1O)-c1c(OC)c(OC)cc3c1C(C2)N(C)CC3 (stereo not drawn)
remaining compound (rat, plasma; 100 µg/mL, 40 d, -20 °C, long-term storage): 96.8 ± 5.6%

CNc1cc(OC)c(Nc2nccc(-c3cn(C4CC4)c4ccccc34)n2)cc1NC(=O)CCSCC(N)C(=O)O (stereo not drawn)
excreted amount (radio-HPLC, co-eluting peaks pooled; human, feces; 0 to 240 h, sample holds 81.99% dose; reference: dose): 6.76%

CC1(C)COc2ccc(F)cc2CN2c3nc4c(cnn4cc3OC[C@H]2C(F)F)C(=O)N1
unbound plasma concentration (SCID/beige mice, tumour-bearing, plasma; oral, 5 mg/kg, 12 h): 8 nM

CC(C)(O)c1ncc([S@](N)(=O)=NC(=O)Nc2c3c(cc4c2CCC4)CCC3)s1
half-life (healthy human volunteers, plasma; oral, 25 mg twice daily, day 14, fed, enteric-coated tablet): 10.4 h

CCCCCCCCCCCCCCCC(=O)OCC(CSC[C@H](N)C(=O)NCC(=O)N[C@@H](CC(=O)O)C(=O)N1CCC[C@H]1C(=O)N[C@@H](CCCCN)C(=O)N[C@@H](Cc1c[nH]cn1)C(=O)N1CCC[C@H]1C(=O)N[C@@H](CCCCN)C(=O)N[C@@H](CO)C(=O)N[C@@H](Cc1ccccc1)C(=O)O)OC(=O)CCCCCCCCCCCCCCC (stereo partly drawn)
Cmax (LC-MS/MS; rhesus monkey, non-irradiated, plasma; subcutaneous, 0.09 mg/kg single dose): 0.116 µg/mL

O=C(O)C1CN(Cc2ccc(-c3noc(-c4ccc(OCC[18F])c(C(F)(F)F)c4)n3)cc2)C1
tracer uptake (rat, spleen; intravenous, 5 min): 0.589 %ID/g

O=C([O-])CN1CCN(CC(=O)[O-])CCN(CC(=O)c2ccc(-c3ccc(OCC(=O)O)cc3)cc2)CCN(CC(=O)[O-])CC1.[Gd+3]
activation enthalpy of water exchange (concentration not given, SAP isomer): 55 kJ/mol

NC(=O)[C@H](Cc1ccccc1)N[11C](=O)OCc1ccccc1
intact tracer (male Wistar rats, plasma; intravenous, 45 min): 10.9% and 11%

CCC/C(=C\C1=C(OC)C(=O)c2ccccc2C1=O)C(=O)NOC
AUC(0-inf) (mouse, plasma; oral, 25 mg/kg): 6.1 µg·h/mL

O=C(OCc1cccc(O)c1O)c1ccc(O)c(CO)c1
toxicity (mice; intraperitoneal, 5 mg/kg/day, 14 days): not toxic

O=C(Cc1ccc2ccccc2c1)N[C@H](Cc1ccccc1)C(=O)N[C@H](Cc1ccc(OP(=O)(O)O)cc1)C(=O)N[C@H](Cc1ccccc1)C(=O)N[C@H](Cc1ccc(OP(=O)(O)O)cc1)C(=O)O
gelation time (substrate, rheology; hydrogel; 0.5 wt%, together with: alkaline phosphatase 0.05 U/mL): 2 h

CC/C=C\C/C=C\C/C=C\C/C=C\C/C=C\CCCCOC(CC)C(=O)O (stereo not drawn)
tissue concentration (14C radiolabel; Wistar rats male, muscle; oral, 100 mg/kg, 4 h): 10 µg/g

O=C(NCCCN(CCCCN(CCCNC(=O)c1cccc(=O)n1[O-])C(=O)c1cccc(=O)n1[O-])C(=O)c1cccc(=O)n1[O-])c1cccc(=O)n1[O-].[89Zr+4]
tracer uptake (mouse, bone; 10 min): 1.04 %ID/g

Excerpt of the above:
COc1ccc(OC)c(NCc2ccc3nc(N)nc(N)c3c2Cl)c1
haemolysis (haemolysis; sheep; 25 µM, 2 h, pH 7.2): 6.9%

O=C(O)C1CN(Cc2ccc(-c3noc(-c4ccc(OCC[18F])c(C(F)(F)F)c4)n3)cc2)C1
tracer uptake (rat, spleen; intravenous, 5 min): 0.589 %ID/g
